{"data": "Measured values pooled from the literature", "note": "Every numbered part comes from another study and shows a few of its results, in no order.", "chain of UniProt O95819 (whole entry, looked up)": "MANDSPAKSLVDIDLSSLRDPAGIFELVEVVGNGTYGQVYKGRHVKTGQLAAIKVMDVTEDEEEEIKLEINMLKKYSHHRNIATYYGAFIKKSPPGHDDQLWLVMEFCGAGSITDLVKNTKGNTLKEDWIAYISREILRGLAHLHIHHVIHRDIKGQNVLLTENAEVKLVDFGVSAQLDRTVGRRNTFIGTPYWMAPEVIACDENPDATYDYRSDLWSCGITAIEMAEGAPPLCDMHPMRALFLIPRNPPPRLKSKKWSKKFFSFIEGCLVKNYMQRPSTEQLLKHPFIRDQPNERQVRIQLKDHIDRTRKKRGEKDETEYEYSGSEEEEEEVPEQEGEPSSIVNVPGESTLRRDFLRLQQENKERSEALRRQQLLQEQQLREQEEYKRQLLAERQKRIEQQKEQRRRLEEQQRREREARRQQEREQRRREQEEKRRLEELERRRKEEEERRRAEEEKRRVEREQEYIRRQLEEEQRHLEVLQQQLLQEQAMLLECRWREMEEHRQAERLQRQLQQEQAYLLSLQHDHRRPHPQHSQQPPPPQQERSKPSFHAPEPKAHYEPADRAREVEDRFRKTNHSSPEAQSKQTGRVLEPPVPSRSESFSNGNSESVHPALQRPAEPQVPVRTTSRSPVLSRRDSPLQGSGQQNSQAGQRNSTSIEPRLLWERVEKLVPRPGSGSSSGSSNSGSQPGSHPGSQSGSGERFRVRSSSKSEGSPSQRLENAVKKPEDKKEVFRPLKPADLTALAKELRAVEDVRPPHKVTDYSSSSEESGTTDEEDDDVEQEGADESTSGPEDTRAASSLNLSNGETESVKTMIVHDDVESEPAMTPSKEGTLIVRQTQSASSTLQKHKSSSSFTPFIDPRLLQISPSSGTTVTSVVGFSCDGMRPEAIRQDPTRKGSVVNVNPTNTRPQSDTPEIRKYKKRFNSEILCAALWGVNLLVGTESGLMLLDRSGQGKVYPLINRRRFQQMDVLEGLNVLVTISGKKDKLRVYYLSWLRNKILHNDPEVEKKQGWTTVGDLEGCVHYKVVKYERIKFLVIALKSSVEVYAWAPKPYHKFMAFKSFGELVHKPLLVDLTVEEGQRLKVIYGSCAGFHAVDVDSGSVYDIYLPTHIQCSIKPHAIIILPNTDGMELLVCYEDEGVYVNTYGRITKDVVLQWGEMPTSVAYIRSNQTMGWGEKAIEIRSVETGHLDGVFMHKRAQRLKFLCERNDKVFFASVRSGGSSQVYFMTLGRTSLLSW", "chain of UniProt P22612 (whole entry, looked up)": "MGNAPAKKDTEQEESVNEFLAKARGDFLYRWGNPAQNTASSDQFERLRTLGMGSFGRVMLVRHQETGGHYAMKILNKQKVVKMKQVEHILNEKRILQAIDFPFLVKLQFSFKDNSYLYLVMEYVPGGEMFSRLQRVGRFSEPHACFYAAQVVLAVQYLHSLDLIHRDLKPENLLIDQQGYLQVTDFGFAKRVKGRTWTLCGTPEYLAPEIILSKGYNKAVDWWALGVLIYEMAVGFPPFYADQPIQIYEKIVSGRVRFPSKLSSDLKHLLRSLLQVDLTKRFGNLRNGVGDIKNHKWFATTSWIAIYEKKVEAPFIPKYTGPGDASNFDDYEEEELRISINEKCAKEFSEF", "chain of UniProt Q9BYP7 (whole entry, looked up)": "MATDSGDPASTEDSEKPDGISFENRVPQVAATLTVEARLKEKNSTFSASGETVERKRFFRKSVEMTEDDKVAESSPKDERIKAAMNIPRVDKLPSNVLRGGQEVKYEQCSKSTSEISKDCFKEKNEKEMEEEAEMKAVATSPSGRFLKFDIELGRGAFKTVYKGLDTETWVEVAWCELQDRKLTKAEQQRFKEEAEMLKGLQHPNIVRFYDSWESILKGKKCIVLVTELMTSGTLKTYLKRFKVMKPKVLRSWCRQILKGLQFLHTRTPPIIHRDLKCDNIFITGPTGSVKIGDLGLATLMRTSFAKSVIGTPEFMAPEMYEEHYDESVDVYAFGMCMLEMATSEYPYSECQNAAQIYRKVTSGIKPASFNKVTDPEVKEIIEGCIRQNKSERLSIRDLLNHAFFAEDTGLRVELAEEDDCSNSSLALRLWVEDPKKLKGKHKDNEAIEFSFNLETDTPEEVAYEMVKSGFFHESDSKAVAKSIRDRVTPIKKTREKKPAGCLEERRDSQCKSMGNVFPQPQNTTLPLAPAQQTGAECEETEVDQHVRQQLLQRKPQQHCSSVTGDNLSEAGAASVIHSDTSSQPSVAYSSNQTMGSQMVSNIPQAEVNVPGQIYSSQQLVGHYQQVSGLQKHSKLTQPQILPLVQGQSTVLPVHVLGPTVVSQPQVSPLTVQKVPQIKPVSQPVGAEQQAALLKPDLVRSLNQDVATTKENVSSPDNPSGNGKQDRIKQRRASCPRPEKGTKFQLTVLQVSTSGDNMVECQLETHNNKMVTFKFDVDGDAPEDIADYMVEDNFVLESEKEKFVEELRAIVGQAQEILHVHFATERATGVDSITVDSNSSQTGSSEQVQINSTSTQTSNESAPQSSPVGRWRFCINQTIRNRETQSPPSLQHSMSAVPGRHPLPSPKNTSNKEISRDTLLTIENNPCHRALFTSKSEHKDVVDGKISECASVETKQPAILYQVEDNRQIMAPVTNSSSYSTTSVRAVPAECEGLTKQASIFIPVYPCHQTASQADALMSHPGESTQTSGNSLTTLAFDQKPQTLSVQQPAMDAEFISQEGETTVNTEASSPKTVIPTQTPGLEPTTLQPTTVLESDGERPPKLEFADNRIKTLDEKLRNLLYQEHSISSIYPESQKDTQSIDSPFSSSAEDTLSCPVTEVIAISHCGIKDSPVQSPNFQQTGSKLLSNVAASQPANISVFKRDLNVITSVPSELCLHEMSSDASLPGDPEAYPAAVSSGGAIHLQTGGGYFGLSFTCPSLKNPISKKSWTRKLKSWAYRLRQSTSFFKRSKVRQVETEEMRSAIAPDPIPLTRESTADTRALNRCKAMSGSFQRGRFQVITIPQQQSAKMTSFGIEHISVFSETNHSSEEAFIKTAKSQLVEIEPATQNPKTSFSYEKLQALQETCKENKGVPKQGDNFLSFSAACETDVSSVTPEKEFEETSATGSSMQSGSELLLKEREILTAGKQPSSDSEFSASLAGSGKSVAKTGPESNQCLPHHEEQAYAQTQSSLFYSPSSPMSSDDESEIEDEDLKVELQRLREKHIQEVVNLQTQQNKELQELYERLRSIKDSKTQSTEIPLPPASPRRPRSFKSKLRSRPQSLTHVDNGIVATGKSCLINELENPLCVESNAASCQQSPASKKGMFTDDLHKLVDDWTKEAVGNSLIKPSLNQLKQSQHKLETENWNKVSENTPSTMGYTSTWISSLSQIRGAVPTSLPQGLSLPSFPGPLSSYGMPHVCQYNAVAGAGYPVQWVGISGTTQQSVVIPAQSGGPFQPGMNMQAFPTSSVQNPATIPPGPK", "chain of UniProt Q8IY84 (whole entry, looked up)": "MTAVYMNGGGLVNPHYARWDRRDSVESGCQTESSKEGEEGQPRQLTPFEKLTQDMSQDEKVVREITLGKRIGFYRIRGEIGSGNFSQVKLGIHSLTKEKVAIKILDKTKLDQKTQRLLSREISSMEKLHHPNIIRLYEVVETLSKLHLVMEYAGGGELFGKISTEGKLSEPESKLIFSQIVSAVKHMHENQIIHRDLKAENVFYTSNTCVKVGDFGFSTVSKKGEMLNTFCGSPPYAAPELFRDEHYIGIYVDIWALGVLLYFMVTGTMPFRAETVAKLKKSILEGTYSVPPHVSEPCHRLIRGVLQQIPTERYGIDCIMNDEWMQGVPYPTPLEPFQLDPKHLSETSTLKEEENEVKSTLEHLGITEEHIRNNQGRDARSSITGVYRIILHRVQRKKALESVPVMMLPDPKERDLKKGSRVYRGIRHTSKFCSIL", "chain of UniProt Q7KZI7 (whole entry, looked up)": "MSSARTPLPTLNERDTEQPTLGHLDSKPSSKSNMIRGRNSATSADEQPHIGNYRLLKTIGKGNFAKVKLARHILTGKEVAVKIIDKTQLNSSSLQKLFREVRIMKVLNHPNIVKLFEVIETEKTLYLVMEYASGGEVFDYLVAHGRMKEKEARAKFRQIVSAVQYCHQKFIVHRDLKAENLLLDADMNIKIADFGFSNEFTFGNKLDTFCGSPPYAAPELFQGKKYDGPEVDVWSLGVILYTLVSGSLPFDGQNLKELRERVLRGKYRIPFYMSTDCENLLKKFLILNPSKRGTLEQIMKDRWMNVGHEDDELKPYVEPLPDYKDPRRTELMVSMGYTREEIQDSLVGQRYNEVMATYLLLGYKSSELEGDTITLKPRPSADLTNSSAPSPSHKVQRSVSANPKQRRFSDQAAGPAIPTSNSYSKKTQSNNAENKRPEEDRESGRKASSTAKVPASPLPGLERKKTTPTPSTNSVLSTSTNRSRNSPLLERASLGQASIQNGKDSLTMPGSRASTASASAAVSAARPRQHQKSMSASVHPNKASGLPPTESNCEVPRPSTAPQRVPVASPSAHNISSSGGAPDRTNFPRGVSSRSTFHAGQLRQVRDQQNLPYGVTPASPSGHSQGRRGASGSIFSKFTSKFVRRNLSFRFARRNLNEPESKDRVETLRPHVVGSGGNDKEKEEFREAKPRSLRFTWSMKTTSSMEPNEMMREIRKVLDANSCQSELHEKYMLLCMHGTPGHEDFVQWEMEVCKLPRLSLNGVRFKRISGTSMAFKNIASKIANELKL"}
{"data": "Sample 1", "target": "Calcium/calmodulin-dependent protein kinase type II subunit alpha (CAMK2A, Homo sapiens, UniProt Q9UQM7)", "observed": "enzyme activity", "action": "inhibitor", "tested at": "10 µM", "chain of UniProt Q9UQM7 (whole entry, looked up)": "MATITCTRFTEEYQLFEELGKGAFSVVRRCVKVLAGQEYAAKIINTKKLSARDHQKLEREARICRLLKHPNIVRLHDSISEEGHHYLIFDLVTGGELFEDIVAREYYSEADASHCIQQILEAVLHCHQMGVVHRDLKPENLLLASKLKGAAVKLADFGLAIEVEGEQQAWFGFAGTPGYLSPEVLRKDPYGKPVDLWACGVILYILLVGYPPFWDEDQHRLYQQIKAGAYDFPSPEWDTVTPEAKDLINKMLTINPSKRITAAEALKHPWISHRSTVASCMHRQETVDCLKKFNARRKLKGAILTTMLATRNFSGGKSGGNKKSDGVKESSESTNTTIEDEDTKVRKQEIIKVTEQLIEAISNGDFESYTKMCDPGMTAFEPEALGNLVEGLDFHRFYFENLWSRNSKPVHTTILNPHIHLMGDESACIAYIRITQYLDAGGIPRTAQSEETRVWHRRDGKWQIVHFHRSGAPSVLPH"}
{"Compound": "O=C(O)c1cc(=O)c2cccc(O)c2[nH]1", "inhibition [%]": -8}
{"Compound": "Cc1cc2c(cc1S(N)(=O)=O)S(=O)(=O)CCC2", "inhibition [%]": -10}
{"Compound": "CC12CC3OC4O[C@H](CO)[C@@H](O)[C@H](O)[C@H]4OC34CC1C4(COC(=O)c1ccccc1)C(=O)O2 (stereo partly drawn)", "inhibition [%]": -10}
{"Compound": "CCCCC/C=C/C/C=C/CCCCCCCCCC(=O)O", "inhibition [%]": -16}
{"Compound": "C[C@@H]1O[C@@H](OC[C@H]2O[C@@H](Oc3c(-c4ccc(O)cc4)oc4cc(O)cc(O)c4c3=O)[C@H](O)[C@@H](O)[C@H]2O)[C@H](O)[C@H](O)[C@H]1O", "inhibition [%]": 24}
{"Compound": "COc1ccc(O)cc1", "inhibition [%]": -9}
{"Compound": "CC[C@H]1OC(=O)[C@H](C)[C@@H](O[C@H]2C[C@@](C)(OC)[C@@H](O)[C@H](C)O2)[C@H](C)[C@@H](O[C@@H]2O[C@H](C)C[C@H](N(C)C)[C@H]2O)[C@](C)(O)C[C@@H](C)/C(=N\\OCOCCOC)[C@H](C)[C@@H](O)[C@]1(C)O", "inhibition [%]": -1}
{"Compound": "CCCCCCCC/C=C\\CCCCCCCC(=O)OC[C@H](COP(=O)(O)O)OC(=O)CCCCCCC/C=C\\CCCCCCCC", "inhibition [%]": 30}
{"data": "Sample 2", "Compound": "O=C1NC(=O)/C(=C/c2ccc3nccnc3c2)S1", "observed": "enzyme activity", "action": "inhibitor", "tested at": "0.5 µM", "reference": "control"}
{"target": "cAMP-dependent protein kinase catalytic subunit gamma (PRKACG, Homo sapiens, UniProt P22612)", "remaining activity [%]": 99.6}
{"target": "Homeodomain-interacting protein kinase 4 (HIPK4, Homo sapiens, UniProt Q8NE63)", "remaining activity [%]": 95}
{"target": "Ephrin type-B receptor 4 (EPHB4, Homo sapiens, UniProt P54760)", "remaining activity [%]": 101}
{"target": "Cyclin-dependent kinase 4, with cyclin D3 (CDK4, Homo sapiens, UniProt P11802)", "remaining activity [%]": 93.9}
{"target": "Phosphorylase b kinase gamma catalytic chain, skeletal muscle/heart isoform (PHKG1, Homo sapiens, UniProt Q16816)", "remaining activity [%]": 91.3}
{"target": "Cyclin-dependent kinase 1, with cyclin B (CDK1, Homo sapiens, UniProt P06493)", "remaining activity [%]": 93.8}
{"target": "Tyrosine-protein kinase Srms (SRMS, Homo sapiens, UniProt Q9H3Y6)", "remaining activity [%]": 96.6}
{"target": "Cyclin-dependent kinase 6, with cyclin D3 (CDK6, Homo sapiens, UniProt Q00534)", "remaining activity [%]": 95.8}
{"target": "Tyrosine-protein kinase ABL1 (ABL1, Homo sapiens, UniProt P00519)", "remaining activity [%]": 95.7}
{"target": "3-phosphoinositide-dependent protein kinase 1 (PDPK1, Homo sapiens, UniProt O15530)", "remaining activity [%]": 104}
{"target": "Calcium/calmodulin-dependent protein kinase type II subunit beta (CAMK2B, Homo sapiens, UniProt Q13554)", "remaining activity [%]": 89.3}
{"target": "Tyrosine-protein kinase Blk (BLK, Homo sapiens, UniProt P51451)", "remaining activity [%]": 99.4}
{"target": "MAP kinase-activated protein kinase 3 (MAPKAPK3, Homo sapiens, UniProt Q16644)", "remaining activity [%]": 104}
{"target": "Testis-specific serine/threonine-protein kinase 2 (TSSK2, Homo sapiens, UniProt Q96PF2)", "remaining activity [%]": 88.7}
{"target": "Serine/threonine-protein kinase 17A (STK17A, Homo sapiens, UniProt Q9UEE5)", "remaining activity [%]": 94.6}
{"target": "Ribosomal protein S6 kinase alpha-5 (RPS6KA5, Homo sapiens, UniProt O75582)", "remaining activity [%]": 87.8}
{"target": "Mitogen-activated protein kinase kinase kinase kinase 4 (MAP4K4, Homo sapiens, UniProt O95819)", "remaining activity [%]": 80.9}
{"target": "Ephrin type-B receptor 1 (EPHB1, Homo sapiens, UniProt P54762)", "remaining activity [%]": 93.4}
{"target": "Serine/threonine-protein kinase 16 (STK16, Homo sapiens, UniProt O75716)", "remaining activity [%]": 91.9}
{"target": "Ephrin type-A receptor 4 (EPHA4, Homo sapiens, UniProt P54764)", "remaining activity [%]": 96}
{"target": "Homeodomain-interacting protein kinase 2 (HIPK2, Homo sapiens, UniProt Q9H2X6)", "remaining activity [%]": 101}
{"target": "Tyrosine-protein kinase receptor UFO (AXL, Homo sapiens, UniProt P30530)", "remaining activity [%]": 112}
{"target": "Ribosomal protein S6 kinase alpha-6 (RPS6KA6, Homo sapiens, UniProt Q9UK32)", "remaining activity [%]": 87.6}
{"target": "Serine/threonine-protein kinase WNK3 (WNK3, Homo sapiens, UniProt Q9BYP7)", "remaining activity [%]": 85.8}
{"data": "Sample 3", "medium": "1,9-decadiene/PBS", "pH": "7.4"}
{"Structure (SMILES)": "CC(C)C[C@@H]1NC(=O)[C@H](CC(C)C)NC(=O)[C@@H](C(C)C)NC(=O)[C@H](CC(C)C)NC(=O)[C@@H](Cc2cscn2)NC(=O)[C@H](C)NC(=O)[C@H](CCC(=O)N2CCCC2)NC1=O", "logD": -2.21}
{"Structure (SMILES)": "CC(C)C[C@@H]1NC(=O)[C@H](C)NC(=O)[C@H](C)NC(=O)[C@H](C)NC(=O)[C@H](C(C)C)NC(=O)[C@H](CC(C)C)NC(=O)[C@@H](CC(C)C)NC1=O", "logD": -2.27}
{"Structure (SMILES)": "CC(C)C[C@@H]1NC(=O)[C@H](C)NC(=O)[C@H](CCC(=O)N2CCCC2)NC(=O)[C@H](C)NC(=O)[C@H](CC(C)C)NC(=O)[C@H](CC(C)C)NC(=O)[C@@H](C(C)C)NC1=O", "logD": -2.71}
{"Structure (SMILES)": "CC(C)C[C@@H]1NC(=O)[C@H](C)NC(=O)[C@@H](CCC(=O)N2CCCC2)NC(=O)[C@H](C)NC(=O)[C@H](C)NC(=O)[C@H](CC(C)C)NC(=O)[C@H](CC(C)C)NC1=O", "logD": -3.08}
{"Structure (SMILES)": "CC(C)C[C@@H]1NC(=O)[C@H](C)NC(=O)[C@@H](CC(C)C)NC(=O)[C@@H](CC(C)C)NC(=O)[C@H](C(C)C)NC(=O)[C@H](CC(C)C)NC(=O)[C@@H](CC(C)C)NC1=O", "logD": 1.85}
{"Structure (SMILES)": "CC(C)C[C@@H]1NC(=O)[C@H](C(C)C)NC(=O)[C@@H](CC(C)C)NC(=O)[C@@H](CC(C)C)NC(=O)[C@H](C(C)C)NC(=O)[C@H](CC(C)C)NC(=O)[C@@H](CC(C)C)NC1=O", "logD": 2.76}
{"Structure (SMILES)": "CC(C)C[C@@H]1NC(=O)[C@@H](C)NC(=O)[C@H](CCC(=O)N2CCCC2)NC(=O)[C@H](C)NC(=O)[C@H](C(C)C)NC(=O)[C@H](CC(C)C)NC(=O)[C@@H](CC(C)C)NC1=O", "logD": -1.78}
{"Structure (SMILES)": "CC(C)C[C@@H]1NC(=O)[C@H](C)NC(=O)[C@H](C)NC(=O)[C@H](CC(C)C)NC(=O)[C@H](C(C)C)NC(=O)[C@H](CC(C)C)NC(=O)[C@@H](CC(C)C)NC1=O", "logD": -0.676}
{"Structure (SMILES)": "CC(C)C[C@@H]1NC(=O)[C@H](C(C)C)NC(=O)[C@H](Cc2cscn2)NC(=O)[C@H](CC(C)C)NC(=O)[C@@H](CCC(=O)N2CCCC2)NC(=O)[C@H](CC(C)C)NC(=O)[C@@H](CC(C)C)NC1=O", "logD": -0.537}
{"Structure (SMILES)": "CC(C)C[C@@H]1NC(=O)[C@H](CC(C)C)NC(=O)[C@@H](CC(C)C)NC(=O)[C@H](CC(C)C)NC(=O)[C@H](C(C)C)NC(=O)[C@H](Cc2cscn2)NC(=O)[C@H](C)NC1=O", "logD": 0.0654}
{"Structure (SMILES)": "CC(C)C[C@@H]1NC(=O)[C@H](CC(C)C)NC(=O)[C@@H](C(C)C)NC(=O)[C@H](C)NC(=O)[C@@H](Cc2cscn2)NC(=O)[C@@H](CC(C)C)NC(=O)[C@H](C)NC1=O", "logD": -1.72}
{"Structure (SMILES)": "CC(C)C[C@@H]1NC(=O)[C@H](C)NC(=O)[C@H](C)NC(=O)[C@@H](CC(C)C)NC(=O)[C@H](C)NC(=O)[C@H](CC(C)C)NC(=O)[C@H](CC(C)C)NC1=O", "logD": -1.28}
{"Structure (SMILES)": "CC(C)C[C@@H]1NC(=O)[C@@H](C)NC(=O)[C@@H](CC(C)C)NC(=O)[C@@H](C(C)C)NC(=O)[C@H](C)NC(=O)[C@H](CC(C)C)NC(=O)[C@@H](CC(C)C)NC1=O", "logD": -0.101}
{"data": "Sample 4", "SMILES": "CCCOc1ccc([C@H]2[C@H](C(=O)O)[C@@H](c3ccc4c(c3)OCO4)CN2CC(=O)Nc2c(CC)cccc2CC)cc1", "observed": "cell-free assay", "technique": "competition with immobilised ligand", "tested at": "1 µM"}
{"target": "Receptor-type tyrosine-protein kinase FLT3 (FLT3, Homo sapiens, UniProt P36888)", "remaining binding [%]": 87}
{"target": "Serine/threonine-protein kinase TAO1 (TAOK1, Homo sapiens, UniProt Q7L7X3)", "remaining binding [%]": 84}
{"target": "Serine/threonine-protein kinase Sgk2 (SGK2, Homo sapiens, UniProt Q9HBY8)", "remaining binding [%]": 54}
{"target": "Phosphatidylinositol 3-kinase C2 domain-containing subunit gamma (PIK3C2G, Homo sapiens, UniProt O75747)", "remaining binding [%]": 75}
{"target": "NUAK family SNF1-like kinase 1 (NUAK1, Homo sapiens, UniProt O60285)", "remaining binding [%]": 83}
{"target": "Serine/threonine-protein kinase 32B (STK32B, Homo sapiens, UniProt Q9NY57)", "remaining binding [%]": 100}
{"target": "Serine/threonine-protein kinase NIM1 (NIM1K, Homo sapiens, UniProt Q8IY84)", "remaining binding [%]": 78}
{"target": "Serine/threonine-protein kinase MARK2 (MARK2, Homo sapiens, UniProt Q7KZI7)", "remaining binding [%]": 88}
{"target": "Bone morphogenetic protein receptor type-2 (BMPR2, Homo sapiens, UniProt Q13873)", "remaining binding [%]": 53}
{"target": "Mitogen-activated protein kinase kinase kinase 4 (MAP3K4, Homo sapiens, UniProt Q9Y6R4)", "remaining binding [%]": 88}
{"target": "Ribosomal protein S6 kinase alpha-1, C-terminal kinase domain (RPS6KA1, Homo sapiens, UniProt Q15418)", "remaining binding [%]": 74}
{"target": "Tyrosine-protein kinase JAK1, JH1 (JAK1, Homo sapiens, UniProt P23458)", "remaining binding [%]": 95}
{"target": "Mitogen-activated protein kinase kinase kinase kinase 2 (MAP4K2, Homo sapiens, UniProt Q12851)", "remaining binding [%]": 79}
{"target": "Mitogen-activated protein kinase 11 (MAPK11, Homo sapiens, UniProt Q15759)", "remaining binding [%]": 95}
{"target": "Protein-tyrosine kinase 2-beta (PTK2B, Homo sapiens, UniProt Q14289)", "remaining binding [%]": 98}
{"note": "Repeated from above (sample 2):"}
{"target": "Ribosomal protein S6 kinase alpha-5 (RPS6KA5, Homo sapiens, UniProt O75582)", "remaining activity [%]": 87.8}
{"target": "Homeodomain-interacting protein kinase 4 (HIPK4, Homo sapiens, UniProt Q8NE63)", "remaining activity [%]": 95}
{"target": "Phosphorylase b kinase gamma catalytic chain, skeletal muscle/heart isoform (PHKG1, Homo sapiens, UniProt Q16816)", "remaining activity [%]": 91.3}
{"target": "Homeodomain-interacting protein kinase 2 (HIPK2, Homo sapiens, UniProt Q9H2X6)", "remaining activity [%]": 101}
{"target": "Serine/threonine-protein kinase WNK3 (WNK3, Homo sapiens, UniProt Q9BYP7)", "remaining activity [%]": 85.8}
{"target": "Calcium/calmodulin-dependent protein kinase type II subunit beta (CAMK2B, Homo sapiens, UniProt Q13554)", "remaining activity [%]": 89.3}
{"target": "cAMP-dependent protein kinase catalytic subunit gamma (PRKACG, Homo sapiens, UniProt P22612)", "remaining activity [%]": 99.6}
{"target": "Ribosomal protein S6 kinase alpha-6 (RPS6KA6, Homo sapiens, UniProt Q9UK32)", "remaining activity [%]": 87.6}
{"target": "Ephrin type-B receptor 4 (EPHB4, Homo sapiens, UniProt P54760)", "remaining activity [%]": 101}
